Experimental data collected from several papers.
Compare with care: the assays were run in different laboratories.
BIRC3 BIR3: Baculoviral IAP repeat-containing protein 3, BIR3 (BIRC3, Homo sapiens, UniProt Q13489)
Beta-lactamase CTX-M-27: Beta-lactamase CTX-M-27 (Escherichia coli, UniProt Q840M4)

For CCN(CC)c1ccc(CNC(=O)[C@@H]2CC[C@@H]3CCN(C(=O)Cc4ccccc4)C[C@H](NC(=O)[C@H](C)NC)C(=O)N32)cc1, the Ki was 0.255 µM (BIRC3 BIR3; ligand displacement, FP).
The Ki of COCCOc1cc2ncnc(Nc3cccc(-c4cn(-c5cccc(S(N)(=O)=O)c5)nn4)c3)c2cc1OCCOC is reported as 0.174 µM (CA6 (Homo sapiens, UniProt P23280); enzyme activity, inhibitor, stopped-flow).
With O=C(Nc1cccc(-c2nn[nH]n2)c1)c1cc(-c2ccco2)cc(C(F)(F)F)c1 the Ki was 3.86 µM (Beta-lactamase CTX-M-27; enzyme activity, inhibitor, absorbance; pH 7).
CC(C)C[C@H](NC(=O)[C@H](CCCNC(=N)N)NC(=O)[C@H](Cc1ccc(O)cc1)NC(=O)CCCCCCC(=O)N[C@@H](Cc1ccc(O)cc1)C(=O)N[C@@H](CCCNC(=N)N)C(=O)N[C@@H](CC(C)C)C(=O)NN(CCCNC(=N)N)C(=O)N[C@@H](Cc1ccc(O)cc1)C(N)=O)C(=O)NN(CCCNC(=N)N)C(=O)N[C@@H](Cc1ccc(O)cc1)C(N)=O gave a Ki of 3.56 µM (NPY5R (Homo sapiens, UniProt Q15761); ligand displacement, radioligand).
CC(=O)N[C@@H](CCCNC(=N)N)C(=O)N[C@@H](CCCCN)C(=O)N[C@@H](CCCCN)C(=O)N[C@@H](Cc1ccc(O)cc1)C(=O)N[C@@H](CCCCN)C(=O)N[C@@H](Cc1ccccc1)C(=O)N[C@@H](CC(N)=O)C(=O)N[C@@H](CCC(=O)O)C(=O)N[C@@H](CC(=O)O)C(=O)N[C@H](C(=O)N[C@@H](CCC(=O)O)C(=O)N[C@@H](CCCNC(=N)N)C(=O)N[C@@H](CCCNC(=N)N)C(=O)N[C@@H](CCCNC(=N)N)C(=O)N[C@@H](Cc1ccccc1)C(=O)N[C@@H](CC(C)C)C(N)=O)[C@@H](C)O gave a Ki of 178 µM (EEF2K (Homo sapiens, UniProt O00418); enzyme activity, inhibitor, radiometric).
With CCCC/N=C1/SC[C@@H]2[C@@H](O)[C@H](O)[C@@H](O)[C@@H](CCC)N12 the Ki was over 2000 µM (Alpha-galactosidase (Coffea arabica, UniProt Q42656); enzyme activity, competitive inhibitor; green coffee bean enzyme, optimal pH, together with: p-nitrophenyl glycopyranoside).
The Ki of CN[C@@H](C)C(=O)N[C@H]1CN(C(=O)Cc2ccccc2)CC[C@H]2CC[C@@H](C(=O)NCc3ccc([N+](=O)[O-])cc3)N2C1=O is reported as 0.0314 µM (BIRC3 BIR3; ligand displacement, FP).
For CC(=O)N[C@@H](CCC(N)=O)C(=O)N[C@@H](CC(=O)O)C(=O)N[C@H](C(=O)N[C@@H](CCCNC(=N)N)C(=O)N[C@H](C=O)CC(=O)O)[C@@H](C)O, the Ki was 0.282 µM (Caspase-7 (CASP7, Homo sapiens, UniProt P55210); enzyme activity, inhibitor, fluorescence; pH 7).
Cc1cc(N)nc(C[C@@H]2CNC[C@@H]2OCCCCCc2cccc(N)n2)c1 has a Ki of 33.5 µM (NOS3 (Bos taurus, UniProt P29473); enzyme activity, inhibitor; pH 7.4).
CN[C@@H](C)C(=O)N[C@H]1CN(C(=O)Cc2ccccc2)CC[C@H]2CC[C@@H](C(=O)NCc3ccccc3)N2C1=O has a Ki of 0.0047 µM (Baculoviral IAP repeat-containing protein 2, BIR3 (BIRC2, Homo sapiens, UniProt Q13490); ligand displacement, FP).
The Ki of O=C(c1ccc(F)cc1)C1CCN(C2Cc3c(O)cccc3CC2O)CC1 (single isomer, unassigned; (+)) is reported as over 10 µM (sigma-2 receptor; radioligand binding; together with: [3H]DTG).
The Ki of O=C(Nc1cccc(-c2nn[nH]n2)c1)c1cc(-n2ccnn2)cc(C(F)(F)F)c1 is reported as 3.65 µM (Beta-lactamase CTX-M-27; enzyme activity, inhibitor, absorbance; pH 7).
With COCCOc1cc2ncnc(Nc3cccc(-c4cn(Cc5ccc(S(N)(=O)=O)cc5)nn4)c3)c2cc1OCCOC the Ki was 0.013 µM (CA5A (Homo sapiens, UniProt P35218); enzyme activity, inhibitor, stopped-flow).
For Cc1ccc(-c2nc3ccccc3[nH]2)cc1NC(=O)COc1ccccc1Cl, the Ki was 2.99 µM (PPXII (Nicotiana tabacum, UniProt O24164); enzyme activity, inhibitor, fluorescence).
C[C@@H]1O[C@@H](OCc2cc(O)c3c(c2)[C@](O)([C@@H]2O[C@H](CO)[C@@H](O)[C@H](O)[C@H]2O)c2cccc(O)c2C3=O)[C@H](O)[C@H](O)[C@H]1O has a Ki of 135 µM (IDO1 (Homo sapiens, UniProt P14902); uncompetitive inhibitor, Lineweaver-Burk plot).

Excerpt of the above:
C[C@@H]1O[C@@H](OCc2cc(O)c3c(c2)[C@](O)([C@@H]2O[C@H](CO)[C@@H](O)[C@H](O)[C@H]2O)c2cccc(O)c2C3=O)[C@H](O)[C@H](O)[C@H]1O has a Ki of 135 µM (IDO1 (Homo sapiens, UniProt P14902); uncompetitive inhibitor, Lineweaver-Burk plot).
For CCN(CC)c1ccc(CNC(=O)[C@@H]2CC[C@@H]3CCN(C(=O)Cc4ccccc4)C[C@H](NC(=O)[C@H](C)NC)C(=O)N32)cc1, the Ki was 0.255 µM (BIRC3 BIR3; ligand displacement, FP).
